Measured values pooled from the literature.
Every numbered part comes from another study and shows a few of its results, in no order. “And” joins repeats or separate records; there may be more than shown.
Chain of UniProt Q5XXA6 (whole entry, unmodified, looked up): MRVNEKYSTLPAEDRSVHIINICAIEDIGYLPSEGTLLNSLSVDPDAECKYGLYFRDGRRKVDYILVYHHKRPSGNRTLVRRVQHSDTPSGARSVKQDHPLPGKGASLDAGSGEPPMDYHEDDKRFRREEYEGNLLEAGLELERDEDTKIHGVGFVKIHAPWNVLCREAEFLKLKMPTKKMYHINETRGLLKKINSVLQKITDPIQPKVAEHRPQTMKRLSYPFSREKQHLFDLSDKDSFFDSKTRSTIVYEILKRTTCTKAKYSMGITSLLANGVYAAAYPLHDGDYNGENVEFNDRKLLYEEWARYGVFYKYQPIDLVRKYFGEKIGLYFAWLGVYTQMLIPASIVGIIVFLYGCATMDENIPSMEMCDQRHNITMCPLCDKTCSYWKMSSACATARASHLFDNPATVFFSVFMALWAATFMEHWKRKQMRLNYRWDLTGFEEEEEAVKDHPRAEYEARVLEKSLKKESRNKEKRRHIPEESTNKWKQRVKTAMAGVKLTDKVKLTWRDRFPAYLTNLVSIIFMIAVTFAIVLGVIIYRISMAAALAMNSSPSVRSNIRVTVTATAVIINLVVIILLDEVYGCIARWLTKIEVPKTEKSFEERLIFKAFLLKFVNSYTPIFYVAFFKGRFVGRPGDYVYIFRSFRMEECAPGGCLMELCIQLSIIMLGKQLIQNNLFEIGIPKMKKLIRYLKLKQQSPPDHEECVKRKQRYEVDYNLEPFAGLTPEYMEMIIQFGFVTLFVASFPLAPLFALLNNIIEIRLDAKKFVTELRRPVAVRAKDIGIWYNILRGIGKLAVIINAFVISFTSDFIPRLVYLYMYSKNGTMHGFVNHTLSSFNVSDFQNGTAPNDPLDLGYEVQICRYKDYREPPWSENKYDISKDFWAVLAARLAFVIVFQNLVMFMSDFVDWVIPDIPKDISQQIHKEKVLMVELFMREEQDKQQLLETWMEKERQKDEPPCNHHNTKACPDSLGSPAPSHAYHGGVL
Chain of UniProt P11802 (whole entry, looked up): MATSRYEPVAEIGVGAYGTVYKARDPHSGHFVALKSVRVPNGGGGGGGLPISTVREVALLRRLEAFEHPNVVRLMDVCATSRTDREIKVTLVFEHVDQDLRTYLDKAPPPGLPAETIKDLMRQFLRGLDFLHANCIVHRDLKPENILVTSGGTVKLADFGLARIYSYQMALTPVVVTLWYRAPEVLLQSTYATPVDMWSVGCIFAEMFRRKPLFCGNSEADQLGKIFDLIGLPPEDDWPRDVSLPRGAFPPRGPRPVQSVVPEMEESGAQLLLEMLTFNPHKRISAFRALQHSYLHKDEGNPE
Chain of UniProt Q13237 (whole entry, looked up): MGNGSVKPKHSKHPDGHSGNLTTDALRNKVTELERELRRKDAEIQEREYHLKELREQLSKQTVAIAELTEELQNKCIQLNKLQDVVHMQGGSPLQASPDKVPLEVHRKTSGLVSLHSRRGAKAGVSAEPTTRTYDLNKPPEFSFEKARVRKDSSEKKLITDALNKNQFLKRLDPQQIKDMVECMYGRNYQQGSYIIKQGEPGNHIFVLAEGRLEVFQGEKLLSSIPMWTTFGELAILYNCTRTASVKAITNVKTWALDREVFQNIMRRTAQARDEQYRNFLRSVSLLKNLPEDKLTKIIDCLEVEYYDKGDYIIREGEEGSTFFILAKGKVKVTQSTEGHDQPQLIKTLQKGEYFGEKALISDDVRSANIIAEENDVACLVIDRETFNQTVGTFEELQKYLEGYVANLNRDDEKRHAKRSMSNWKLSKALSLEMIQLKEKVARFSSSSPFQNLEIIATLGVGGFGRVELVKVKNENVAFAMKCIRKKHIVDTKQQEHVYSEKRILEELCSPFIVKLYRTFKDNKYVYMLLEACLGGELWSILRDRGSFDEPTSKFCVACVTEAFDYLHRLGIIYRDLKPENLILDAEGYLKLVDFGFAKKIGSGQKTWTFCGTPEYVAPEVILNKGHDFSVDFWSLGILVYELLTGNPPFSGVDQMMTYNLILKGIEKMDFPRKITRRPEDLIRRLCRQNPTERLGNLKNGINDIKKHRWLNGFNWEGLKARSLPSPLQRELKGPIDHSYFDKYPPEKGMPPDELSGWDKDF
Chain of UniProt Q6XUX3 (whole entry, looked up): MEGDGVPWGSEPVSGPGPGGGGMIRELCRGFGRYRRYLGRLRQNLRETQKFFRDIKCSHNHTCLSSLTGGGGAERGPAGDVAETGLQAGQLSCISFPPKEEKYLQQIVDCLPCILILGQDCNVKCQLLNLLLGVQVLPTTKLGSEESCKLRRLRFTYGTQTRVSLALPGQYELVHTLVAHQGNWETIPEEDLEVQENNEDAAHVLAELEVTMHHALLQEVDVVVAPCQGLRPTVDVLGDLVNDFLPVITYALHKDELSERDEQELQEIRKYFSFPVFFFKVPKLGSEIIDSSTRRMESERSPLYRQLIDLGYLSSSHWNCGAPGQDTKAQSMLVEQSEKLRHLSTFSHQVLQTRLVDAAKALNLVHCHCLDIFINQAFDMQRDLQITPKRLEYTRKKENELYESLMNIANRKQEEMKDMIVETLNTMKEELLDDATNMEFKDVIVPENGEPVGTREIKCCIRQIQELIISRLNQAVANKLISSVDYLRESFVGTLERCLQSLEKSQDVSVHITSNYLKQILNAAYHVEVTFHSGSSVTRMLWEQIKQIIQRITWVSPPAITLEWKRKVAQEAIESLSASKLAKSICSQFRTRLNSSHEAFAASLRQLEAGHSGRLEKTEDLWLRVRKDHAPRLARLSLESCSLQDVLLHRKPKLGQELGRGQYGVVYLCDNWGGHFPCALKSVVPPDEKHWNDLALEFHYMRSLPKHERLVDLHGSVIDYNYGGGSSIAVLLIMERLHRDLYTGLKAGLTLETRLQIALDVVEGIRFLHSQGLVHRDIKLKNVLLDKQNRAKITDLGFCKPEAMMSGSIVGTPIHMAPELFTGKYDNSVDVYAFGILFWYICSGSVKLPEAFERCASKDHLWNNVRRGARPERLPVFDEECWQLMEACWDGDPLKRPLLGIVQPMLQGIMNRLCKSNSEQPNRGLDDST
Chain of UniProt Q13554 (whole entry, looked up): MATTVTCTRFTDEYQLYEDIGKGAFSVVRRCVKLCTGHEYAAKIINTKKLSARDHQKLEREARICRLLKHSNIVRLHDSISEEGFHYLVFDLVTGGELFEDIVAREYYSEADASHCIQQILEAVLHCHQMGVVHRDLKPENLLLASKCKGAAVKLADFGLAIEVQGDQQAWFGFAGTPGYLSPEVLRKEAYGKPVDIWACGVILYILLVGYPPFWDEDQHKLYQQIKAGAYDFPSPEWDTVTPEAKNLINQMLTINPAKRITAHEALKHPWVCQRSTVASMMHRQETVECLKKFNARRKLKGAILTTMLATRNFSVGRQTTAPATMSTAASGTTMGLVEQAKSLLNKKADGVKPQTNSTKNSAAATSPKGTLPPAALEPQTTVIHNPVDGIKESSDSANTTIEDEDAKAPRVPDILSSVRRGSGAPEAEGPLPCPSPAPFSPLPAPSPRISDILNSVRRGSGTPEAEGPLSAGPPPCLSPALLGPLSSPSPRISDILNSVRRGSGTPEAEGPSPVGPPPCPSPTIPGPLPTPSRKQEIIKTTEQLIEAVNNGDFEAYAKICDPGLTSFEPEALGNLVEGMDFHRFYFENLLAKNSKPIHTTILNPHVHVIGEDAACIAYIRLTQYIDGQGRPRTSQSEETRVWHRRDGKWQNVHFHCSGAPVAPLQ
Chain of UniProt P42684 (whole entry, looked up): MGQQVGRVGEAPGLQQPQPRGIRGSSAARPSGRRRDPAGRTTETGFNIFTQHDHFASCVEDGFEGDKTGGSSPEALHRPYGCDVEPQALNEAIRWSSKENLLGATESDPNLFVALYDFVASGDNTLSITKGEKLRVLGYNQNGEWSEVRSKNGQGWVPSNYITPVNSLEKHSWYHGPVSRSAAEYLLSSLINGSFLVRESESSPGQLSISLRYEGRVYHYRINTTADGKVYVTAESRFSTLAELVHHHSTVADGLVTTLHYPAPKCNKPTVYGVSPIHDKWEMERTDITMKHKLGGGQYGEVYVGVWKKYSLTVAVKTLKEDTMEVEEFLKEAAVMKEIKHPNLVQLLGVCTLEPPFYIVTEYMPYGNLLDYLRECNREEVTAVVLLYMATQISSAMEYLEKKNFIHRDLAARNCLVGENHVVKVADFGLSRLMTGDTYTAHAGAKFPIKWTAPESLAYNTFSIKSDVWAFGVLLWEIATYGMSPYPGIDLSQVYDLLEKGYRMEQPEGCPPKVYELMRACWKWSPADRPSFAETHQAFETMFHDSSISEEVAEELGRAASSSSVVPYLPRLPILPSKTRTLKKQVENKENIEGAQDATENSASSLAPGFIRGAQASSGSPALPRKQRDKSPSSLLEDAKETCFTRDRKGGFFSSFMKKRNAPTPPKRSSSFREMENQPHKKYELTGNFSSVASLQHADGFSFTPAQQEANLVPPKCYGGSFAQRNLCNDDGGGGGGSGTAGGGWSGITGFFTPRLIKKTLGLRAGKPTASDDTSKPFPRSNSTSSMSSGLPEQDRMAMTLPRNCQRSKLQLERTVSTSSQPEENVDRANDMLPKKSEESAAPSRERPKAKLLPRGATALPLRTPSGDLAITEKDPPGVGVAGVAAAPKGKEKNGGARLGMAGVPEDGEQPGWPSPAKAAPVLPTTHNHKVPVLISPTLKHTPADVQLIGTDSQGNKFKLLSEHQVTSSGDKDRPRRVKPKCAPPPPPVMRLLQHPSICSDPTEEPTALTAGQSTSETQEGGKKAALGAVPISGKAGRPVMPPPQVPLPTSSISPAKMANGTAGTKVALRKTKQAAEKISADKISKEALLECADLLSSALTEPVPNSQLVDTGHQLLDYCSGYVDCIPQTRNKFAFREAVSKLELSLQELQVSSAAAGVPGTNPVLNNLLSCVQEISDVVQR

Sample 1 — tested at: 1 µM
Compound: COc1ccc2c(O[C@@H]3C[C@H]4C(=O)N[C@]5(C(=O)O)CC5/C=C\CCCCC[C@H](NC(=O)OC5CCCC5)C(=O)N4C3)cc(-c3csc(NC(=O)C(C)C)n3)nc2c1C (some centres unmarked)
| target | test | remaining binding |
| --- | --- | --- |
| CAMK2B (Homo sapiens, UniProt Q13554) | cell-free assay, competition with immobilised ligand | 100% |
| DSTYK (Homo sapiens, UniProt Q6XUX3) | cell-free assay, competition with immobilised ligand | 68% |
| RET (Homo sapiens, UniProt P07949, M918T) | cell-free assay, competition with immobilised ligand | 97% |
| SIK1 (Homo sapiens, UniProt P57059) | competition binding | 100% |
| Cyclin-dependent kinase 4, with cyclin D3 (CDK4, Homo sapiens, UniProt P11802) | cell-free assay, competition with immobilised ligand | 88% |
| PRKG2 (Homo sapiens, UniProt Q13237) | cell-free assay, competition with immobilised ligand | 84% |
| ABL2 (Homo sapiens, UniProt P42684) | cell-free assay, competition with immobilised ligand | 98% |
| STK38L (Homo sapiens, UniProt Q9Y2H1) | cell-free assay, competition with immobilised ligand | 43% |
| STK39 (Homo sapiens, UniProt Q9UEW8) | cell-free assay, competition with immobilised ligand | 100% |
| ALK (Homo sapiens, UniProt Q9UM73, C1156Y) | cell-free assay, competition with immobilised ligand | 100% |

Sample 2 — species: human; matrix: microsomes or S9; tested at: 2 µM; time: 0.5 h
| SMILES | remaining compound |
| --- | --- |
| Cc1ccc(C(C)C)c(OCCNS(C)(=O)=O)c1 | 60% |
| CN1CCCC2(CCN(C3CCN(c4ccc(F)c(F)c4)CC3)C2)C1=O (centres unmarked) | 71.8% |
| Cc1noc(C)c1CCNc1ncnc2onc(-c3cccc(Cl)c3)c12 | 99.4% |
| CCc1ccc(S(=O)(=O)c2nnn3c2[nH]c(=O)c2sccc23)cc1 | 1.32% |
| COc1ccc(CCC(=O)N[C@@H]2CN(S(C)(=O)=O)C[C@H]2CN(C)C)cc1 | > 99.9% |

Sample 3 — cell line: mouse MPNST tumor cells; method: high-content immunofluorescence imaging; refers to: nuclear SOX9; tested at: 10 µM; time: 12 h; notes: mean of 2 replicates; relative to: DMSO control; direction: higher = more nuclear SOX9
| SMILES | nuclear SOX9 intensity |
| --- | --- |
| CNCCN1CCC(OCc2ccccc2)CC1 | 99.1 % of DMSO |
| CCCc1ncc(C[n+]2ccccc2C)c(N)n1 | 105 % of DMSO |
| NC(=O)c1cnccn1 | 103 % of DMSO and 94.8 % of DMSO |

Sample 4 — Structure (SMILES): C=CCc1ccc(O)c(-c2cc(CC=C)ccc2O)c1; effect on: chloride current; method: whole-cell voltage clamp
| target | test | conditions | IC50 [µM] |
| --- | --- | --- | --- |
| Anoctamin-1 (ANO1, Homo sapiens, UniProt Q5XXA6, del476-501/F807A) | – | membrane voltage 80 mV | 20 |
| Anoctamin-1 (ANO1, Homo sapiens, UniProt Q5XXA6, D383A/del476-501) | – | membrane voltage -60 mV | 28.7 |
| Anoctamin-1 (ANO1, Homo sapiens, UniProt Q5XXA6, del476-501/F623A) | – | membrane voltage -80 mV | 59.8 |
| Anoctamin-1 (ANO1, Homo sapiens, UniProt Q5XXA6, del476-501/M544I) | inhibitor | 80 mV holding voltage | 190 |

Other studies, line by line
| SMILES | cell line | test | conditions | scale | endpoint | value |
| --- | --- | --- | --- | --- | --- | --- |
| COc1ccc(Oc2cc(NCCC(F)(F)F)c3ncc(-c4ccc(C(=O)NC5CC5)c(C)c4)n3n2)c(F)c1F | NCI-H1048 | Vi-Cell | 12 nM, 3 d | relative to: DMSO | cell count | 0.376 and 0.32 |

For quick reference, copied from above (sample 3):
| SMILES | nuclear SOX9 intensity |
| --- | --- |
| CCCc1ncc(C[n+]2ccccc2C)c(N)n1 | 105 % of DMSO |
| CNCCN1CCC(OCc2ccccc2)CC1 | 99.1 % of DMSO |
